Literature values as cited in several papers.
Numbers after ± are the reported error.
Chain of UniProt Q6ZWH5 (whole entry, looked up): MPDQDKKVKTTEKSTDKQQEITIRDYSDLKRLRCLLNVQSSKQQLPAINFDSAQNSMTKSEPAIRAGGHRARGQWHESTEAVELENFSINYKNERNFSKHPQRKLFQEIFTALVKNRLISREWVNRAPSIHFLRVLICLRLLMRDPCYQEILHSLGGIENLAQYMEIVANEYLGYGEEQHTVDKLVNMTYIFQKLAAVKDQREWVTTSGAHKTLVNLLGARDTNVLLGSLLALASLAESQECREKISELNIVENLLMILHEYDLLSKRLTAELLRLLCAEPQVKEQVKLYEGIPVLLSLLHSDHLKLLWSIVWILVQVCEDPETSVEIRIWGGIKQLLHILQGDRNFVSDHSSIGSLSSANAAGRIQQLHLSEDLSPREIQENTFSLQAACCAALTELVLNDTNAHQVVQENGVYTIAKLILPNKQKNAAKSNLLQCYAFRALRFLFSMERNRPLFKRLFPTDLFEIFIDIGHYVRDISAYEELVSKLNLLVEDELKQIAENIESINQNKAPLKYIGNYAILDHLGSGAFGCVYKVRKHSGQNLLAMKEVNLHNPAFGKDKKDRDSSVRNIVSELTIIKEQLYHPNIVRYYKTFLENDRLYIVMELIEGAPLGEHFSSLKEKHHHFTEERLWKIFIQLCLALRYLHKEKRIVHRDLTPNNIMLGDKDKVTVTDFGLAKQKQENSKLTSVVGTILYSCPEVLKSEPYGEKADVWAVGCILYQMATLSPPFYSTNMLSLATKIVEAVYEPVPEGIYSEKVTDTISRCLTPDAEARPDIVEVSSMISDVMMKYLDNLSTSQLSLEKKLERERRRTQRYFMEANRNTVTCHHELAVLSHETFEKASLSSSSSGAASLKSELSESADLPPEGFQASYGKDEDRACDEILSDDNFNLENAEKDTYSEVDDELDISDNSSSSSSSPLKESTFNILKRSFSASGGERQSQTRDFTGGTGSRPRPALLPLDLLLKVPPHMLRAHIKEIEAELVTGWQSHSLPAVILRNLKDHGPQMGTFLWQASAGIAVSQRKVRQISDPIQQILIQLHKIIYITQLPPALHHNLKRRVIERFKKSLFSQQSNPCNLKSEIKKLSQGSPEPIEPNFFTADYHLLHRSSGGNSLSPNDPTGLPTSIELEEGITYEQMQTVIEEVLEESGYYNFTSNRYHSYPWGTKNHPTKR

SMILES | target or system | test | system | setting | scale | measurement | result
O=C(c1cc(Cc2n[nH]c(=O)c3ccccc23)ccc1F)N1CCN(C(=O)C2CC2)CC1 | – | non-compartmental analysis | human, fasted | oral, 300 mg tablet | – | apparent volume of distribution | 1.34 L/kg
Cn1ncnc1[C@H]1c2n[nH]c(=O)c3cc(F)cc(c23)N[C@@H]1c1ccc(F)cc1 | – | – | human adults | 1000 µg/day | – | apparent clearance CL/F | 5.2 ± 1.4 L/h
CNS(=O)(=O)Nc1nccc(Cc2c(C)c3ccc(Oc4ncccn4)cc3oc2=O)c1F | – | – | human | oral, single dose | – | apparent clearance (CL/F) | 6 mL/min
CCN1CCN(Cc2ccc(Nc3ncc(F)c(-c4cc(F)c5nc(C)n(C(C)C)c5c4)n3)nc2)CC1 | – | – | human | oral, geometric mean | – | apparent clearance CL/F | 38.3 L/h
Nc1cc(C(F)(F)F)c(-c2nc(N3CCOCC3)nc(N3CCOCC3)n2)cn1 | NEK10 (Homo sapiens, UniProt Q6ZWH5) | enzyme activity | – | 10 µM | relative to: untreated | remaining activity | 100%
Cn1ncnc1[C@H]1c2n[nH]c(=O)c3cc(F)cc(c23)N[C@@H]1c1ccc(F)cc1 | – | – | human, advanced cancer | monotherapy | – | apparent clearance CLt/Ft | 6.37 L/h
CO[C@@H](C)Cn1c(=O)n(C)c2cnc3ccc(-c4cncc(C(C)(C)O)c4)cc3c21 | – | – | human | 20 mg and 325 mg, day 1, mean | – | apparent volume Vz/F | 198 L
CNC(=O)c1ccc(N2C(=S)N(c3ccc(C#N)c(C(F)(F)F)c3)C(=O)C2(C)C)cc1F | – | – | human | dose not given, monotherapy | – | apparent central volume Vce/Fe | 38.5 L
CC1(C)CCC(CN2CCN(c3ccc(C(=O)NS(=O)(=O)c4ccc(NCC5CCOCC5)c([N+](=O)[O-])c4)c(Oc4cnc5[nH]ccc5c4)c3)CC2)=C(c2ccc(Cl)cc2)C1 | – | legacy population PK model | human | – | – | apparent clearance (CL/F) | 310 mL/min

Some of these lines once more:
SMILES | target or system | test | system | setting | scale | measurement | result
CNC(=O)c1ccc(N2C(=S)N(c3ccc(C#N)c(C(F)(F)F)c3)C(=O)C2(C)C)cc1F | – | – | human | dose not given, monotherapy | – | apparent central volume Vce/Fe | 38.5 L
